Published values from different studies.
Each line is one published result; not all experiments were run side by side. “And” joins repeats or separate records; there may be more than shown. Numbers after ± are the reported error. In brackets after ≈: the same amount, converted by molar mass.

For `CO[C@H]1/C=C/O[C@@]2(C)Oc3c(C)c(O)c4c(c3C2=O)C2=NC3(CCN(CC(C)C)CC3)NC2=C(NC(=O)/C(C)=C\C=C\[C@H](C)[C@H](O)[C@@H](C)[C@@H](O)[C@@H](C)[C@H](OC(C)=O)[C@@H]1C)C4=O`, the IC50 was 1600 nM (Mycobacteroides abscessus; bacterial growth; subsp. abscessus ATCC 19977).
The median lifespan of `Cc1ccc(NC(=O)N2Cc3[nH]cnc3C[C@H]2c2nc(-c3ccc4c(c3)OCO4)no2)cc1` is reported as 21 days (Caenorhabditis elegans; N2; 3.125 µM).
The clinical score of `Nc1nc(-c2ccccc2)nc2[nH]nc(Nc3ccc(C(F)(F)F)cc3)c12` is reported as 0 (coxsackievirus B3; 31-1-93, NMRI mice, CVB3 chronic myocarditis; oral, 100 mg/kg twice daily, day 21, dosed days 0 to 6, score scale 0 to 7; direction not given).
Under “viral genome replication”, `COc1cc2c(cc1OC)[C@@H]1C(=O)c3ccc4c(c3O[C@@H]1CO2)C=CC(C)(C)O4` is recorded as “decreased” (human adenovirus C5 wild type; qPCR; A549; 10 µM, 24 h post-infection; baseline: DMSO control).
For `CN(C)c1ccc(O)c2c1C[C@H]1C[C@H]3[C@H](N(C)C)C(O)=C(C(N)=O)C(=O)[C@@]3(O)C(O)=C1C2=O`, “total adult worm count” read 7 (Brugia malayi; SCID mouse; dose not given, 6 weeks post-treatment, dosing x28d).
`C=CC[C@@H]1c2ccc(OC)c(OC)c2CN2CCc3cc4c(cc3[C@H]12)OCO4` — result for “relative wound size”: 0.48 and 0.27 and 0.58 and 0.61 and 0.57 and 0.82 (Staphylococcus aureus; P2rx7+/+ mice, skin wound infection; dose not given, day 4; baseline: day 0).
Under “change in serum pgRNA”, `C=C1[C@H](CO)[C@@H](O)C[C@@H]1n1cnc2c(=O)[nH]c(N)nc21` is recorded as -0.96 log10 copies/mL (Hepatitis B virus; item: HBV pgRNA; chronic HBV infection patients; oral, 0.5 mg/day, 28 days; baseline: baseline).
With `CCOC(=O)C1=C(CN2CCCC2C(=O)Nc2ccc(B(O)O)cc2)NC(c2nccs2)=NC1c1ccc(F)cc1Br` (centres unmarked) the EC50 was 220 ± 80 nM (Hepatitis B virus; HBV DNA reduction, qPCR, item: positive-strand DNA; HepDES19; 3 days).
Under “phenotypic severity score”, `CN1CCN(c2ncc(-c3ccc4nncc(Nc5ncccn5)c4c3)cn2)CC1` is recorded as 0 (Schistosoma mansoni; adult worms; 10 µM, 1 h; direction not given).
With `CC(=O)NC[C@H]1CN(c2ccc(N3CCOCC3)c(F)c2)C(=O)O1` the MIC90 was 0.5 µg/mL (≈ 1.48 µM) (Staphylococcus aureus; broth microdilution; methicillin-susceptible isolates).
`N=C(N)c1ccc(OCc2ccc(Br)cc2COc2ccc(C(=N)N)cc2)cc1` gave an FICI of 0.063 (Escherichia coli; checkerboard; mcr-1 polymyxin-resistant; unit not given, with: rifampicin; lower = stronger synergy).
`CC1=C(Cc2cn(Cc3ccccc3)nn2)C(=O)c2ccccc2C1=O` gave a killing of 56.3% (Schistosoma mansoni; adult worms; 25 µM, 48 h).
Under “phenotypic severity score”, `COc1ccc(Nc2cnnc3ccc(-c4ccc(S(=O)(=O)N5CCN(C)CC5)cc4)cc23)cc1Cl` is recorded as 1 (Schistosoma mansoni; adult worms; 10 µM, 5 h; direction not given).
With `C=CC(=O)ON=C1C=CC(=C(C#N)c2ccccc2)C=C1` the MFC was 16 µg/mL (≈ 57.9 µM) (Kluyveromyces marxianus; broth dilution; ATCC 204093; 48 h, 37 °C).
For `COC(=O)[C@H](Cc1c[nH]c2ccccc12)NCc1cc2ccccc2nc1SC`, the growth was 98% (Pseudomonas aeruginosa; 16 µg/mL, without pentamidine; baseline: control).
`COc1ccc(Nc2cnnc3cc(-c4ccc(N5CCN(C)CC5)cc4)ccc23)cc1` — result for “phenotypic severity score”: 0 (Schistosoma mansoni; adult worms; 10 µM, 5 h; direction not given).
The killing of `CC1=C(Cc2cn(CCO)nn2)C(=O)c2ccccc2C1=O` is reported as 64.7% (Schistosoma mansoni; adult worms; 10 µM, 72 h).
For `C[C@H]1c2cccc(O)c2C(=O)C2=C(O)[C@]3(O)C(=O)C(C(N)=O)=C(O)[C@@H](N(C)C)[C@@H]3[C@@H](O)[C@@H]21`, “minimum microfilaria count” read 0 microfilariae per mouse (Brugia malayi; SCID mouse, peritoneal cavity; dose not given, 6 weeks post-treatment, dosing x42d).
`C(=N\Nc1ccccc1)/c1ccc(-c2ccc(/C=N/Nc3ccccc3)cc2)cc1` gave a selectivity index of < 0.6 (Candida albicans; ATCC MYA-2310 susceptible; baseline: mammalian CC50 over MIC).
`C#CCOC(=O)ON=C1C=CC(=C(C#N)c2ccccc2)C=C1` gave an MFC of 8 µg/mL (≈ 26.3 µM) (Kluyveromyces marxianus; broth dilution; ATCC 204093; 48 h, 37 °C).
With `CC1=C(Cn2cc(CN3CCSC3)nn2)C(=O)c2ccccc2C1=O` the killing was 46.4% (Schistosoma mansoni; adult worms; 25 µM, 48 h).
The EC50 of `COc1cc(F)c(-c2c(Cl)nc(-c3cccs3)nc2N[C@H](C)C(C)C)c(F)c1` is reported as < 300 nM (Schistosoma mansoni; worm motility; adult worms ex vivo; 24 h).
For `CN1CCN(S(=O)(=O)c2ccc(-c3ccc4nncc(Nc5cnccn5)c4c3)cc2)CC1`, “phenotypic severity score” read 0 (Schistosoma mansoni; adult worms; 10 µM, 24 h; direction not given).
For `CC1=C(Cn2cc(CBr)nn2)C(=O)c2ccccc2C1=O`, the selectivity index was 17.9 (Schistosoma mansoni; NTS; baseline: L6 CC50 over IC50).
The EC50 of `O=[N+]([O-])c1cc(F)c(-c2c(Cl)nc(-c3cccs3)nc2NCC2CCC2)c(F)c1` is reported as 316 nM (Schistosoma mansoni; motility; adult worms, ex vivo; 24 h).
For `Cc1ccc(Nc2cnnc3ccc(-c4ccc(S(=O)(=O)N5CCN(C)CC5)cc4)cc23)cn1`, “phenotypic severity score” read 2 (Schistosoma mansoni; adult worms; 10 µM, 24 h; direction not given).
With `CC(C)n1ncc2c(C(=O)NCC3(C)CNC3)cc(C3CC3)nc21` the cell protection was 104% and 105% (Enterovirus D68; cytopathic effect; RD, US/MO/14-18947; 5000 nM).
`OC(Cn1cncn1)(Cn1cncn1)c1ccc(F)cc1F` gave an MIC of 4 µg/mL (≈ 13.1 µM) (Candida albicans; broth microdilution; 50; 24 h, compound alone).
`COC[C@H]1O[C@@H]2O[C@H]3[C@H](OC)[C@@H](OC)[C@@H](O[C@H]4[C@H](OC)[C@@H](OC)[C@@H](O[C@H]5[C@H](OC)[C@@H](OC)[C@@H](O[C@H]6[C@H](OC)[C@@H](OC)[C@@H](O[C@H]7[C@H](OC)[C@@H](OC)[C@@H](O[C@H]8[C@H](OC)[C@@H](OC)[C@@H](O[C@H]1[C@H](OC)[C@H]2OC)O[C@@H]8COC)O[C@@H]7COC)O[C@@H]6COC)O[C@@H]5COC)O[C@@H]4COC)O[C@@H]3COC` has an inhibition of -1 ± 6% (Escherichia coli; LuxR reporter, antagonist; DH5α sensor strain; 4 µM, with: OHHL 200 nM).
With `CC1=C(Cc2cn(CCOS(=O)(=O)c3ccc(C)cc3)nn2)C(=O)c2ccccc2C1=O` the killing was 33.6% (Schistosoma mansoni; adult worms; 10 µM, 24 h).
With `CC(=O)N1CCC(C(=O)N2CCN3C(=O)c4cc(-c5ccccc5)ccc4NC(=O)C3C2)CC1` (centres unmarked) the mean lifespan was 18.8 days (Caenorhabditis elegans; N2; 6.25 µM).
The MIC of `N=C(N)c1ccc(OCCCCCOc2ccc(C(=N)N)cc2)cc1` is reported as 50 µg/mL (Escherichia coli; W3110; in combination, checkerboard, with: rifampicin).
The growth of `COC(=O)[C@H](Cc1ccc(O)cc1)NCc1cc2ccccc2nc1SC` is reported as 84.6% (Pseudomonas aeruginosa; 128 µg/mL, without pentamidine; baseline: control).
The inhibition of `Cc1cc(OC(C)C)ccc1C(=O)C(C)(C)NC(=O)c1sccc1C` is reported as 16.9 ± 17.5% (Botrytis cinerea; appressorium formation; B05.10; 0.01 µg/mL).
With `CC1=C(Cn2cc([Si](C)(C)C)nn2)C(=O)c2ccccc2C1=O` the selectivity index was 11.6 (Schistosoma mansoni; NTS; baseline: L6 CC50 over IC50).
`Fc1cc(F)c(-c2c(Cl)nc(-c3cccs3)nc2NCc2ccccc2)c(F)c1` gave an EC50 of 640 nM (Schistosoma mansoni; worm motility; adult worms ex vivo; 24 h).
`COC(=O)[C@@H](NCc1cc2ccccc2nc1OCc1ccccc1)C(C)C` gave a growth of 101% (Pseudomonas aeruginosa; 8 µg/mL, with: pentamidine 50 µM; baseline: control).
`CN[C@H](CC(C)C)C(=O)N[C@H]1C(=O)N[C@@H](CC(N)=O)C(=O)N[C@H]2C(=O)N[C@H]3C(=O)N[C@H](C(=O)N[C@H](C(=O)O)c4cc(O)cc(O)c4-c4cc3ccc4O)[C@H](O)c3ccc(c(Cl)c3)Oc3cc2cc(c3O[C@@H]2O[C@H](CO)[C@@H](O)[C@H](O)[C@H]2O[C@H]2C[C@](C)(N)[C@H](O)[C@H](C)O2)Oc2ccc(cc2Cl)[C@H]1O` has an MIC50 of 1 µg/mL (≈ 0.69 µM) (Staphylococcus epidermidis; methicillin-resistant, 10 isolates; pH 7.0).
`Fc1ccccc1N/N=C/c1ccc(-c2cccc(/C=N/Nc3ccccc3F)c2)cc1` has a selectivity ratio of < 0.5 (Aspergillus terreus; ATCC MYA-3633; baseline: mammalian CC50 over MIC).
`CC1=C(Cn2cc(CN3CCNCC3)nn2)C(=O)c2ccccc2C1=O` gave a killing of 43.8% (Schistosoma mansoni; adult worms; 25 µM, 24 h).
`C[C@H](CCCC(C)(C)O)[C@H]1CC[C@H]2[C@@H]3CC=C4C[C@@H](O)CC[C@]4(C)[C@H]3CC[C@]12C` gave an EC50 of 430 nM (Human rotavirus; Caco-2, DS-1).
`N=C(N)c1ccc(OCc2ccc(-c3ccccc3)cc2COc2ccc(C(=N)N)cc2)cc1` — result for “MIC of compound in combination”: 12.5 µg/mL (Escherichia coli; checkerboard; mcr-1 polymyxin-resistant; concentration not given, 20 h, with: rifampicin).
The MFC of `CCCCCCCCCCCC(=O)ON=C1C=CC(=C(C#N)c2ccccc2)C=C1` is reported as 256 µg/mL (≈ 633 µM) (Kluyveromyces marxianus; broth dilution; ATCC 204093; 48 h, 37 °C).
`COc1ccc(Nc2cnnc3cc(-c4cnc(N5CCCN(C)CC5)nc4)ccc23)cc1`: “phenotypic severity score” 0 (Schistosoma mansoni; adult worms; 10 µM, 1 h; direction not given).
For `COC(=O)[C@H](Cc1c[nH]c2ccccc12)NCc1cc2ccccc2nc1OC`, the growth was 96.3% (Pseudomonas aeruginosa; 8 µg/mL, without pentamidine; baseline: control).
`CC1=C(Cn2cc(CN(Cc3ccccc3)Cc3ccccc3)nn2)C(=O)c2ccccc2C1=O` gave a killing of 48.1% (Schistosoma mansoni; adult worms; 25 µM, 72 h).
For `CN1CCN(c2ccc(-c3ccc4nncc(Nc5cnccn5)c4c3)cc2)CC1`, “phenotypic severity score” read 0 (Schistosoma mansoni; adult worms; 10 µM, 1 h; direction not given).
`CC(=Nc1ccc(N=Cc2cnccn2)cc1)N(C)C` — result for “worm burden reduction”: 100% (Necator americanus; infected hamsters; oral, 50 mg/kg single; baseline: untreated).
Under “phenotypic severity score”, `COc1ccc(Nc2cnnc3ccc(-c4ccc(N5CCN(C)CC5)cc4)cc23)cc1Cl` is recorded as 0 (Schistosoma mansoni; adult worms; 10 µM, 1 h; direction not given).
`C[C@@H](CO)CCC[C@@H](C)[C@H]1CC[C@H]2[C@@H]3CC=C4C[C@@H](O)CC[C@]4(C)[C@H]3CC[C@]12C` gave an EC50 of 440 nM (Human rotavirus; Caco-2, Wa).

A few entries again:
`CC1=C(Cn2cc(CN3CCNCC3)nn2)C(=O)c2ccccc2C1=O` gave a killing of 43.8% (Schistosoma mansoni; adult worms; 25 µM, 24 h).
`C#CCOC(=O)ON=C1C=CC(=C(C#N)c2ccccc2)C=C1` gave an MFC of 8 µg/mL (≈ 26.3 µM) (Kluyveromyces marxianus; broth dilution; ATCC 204093; 48 h, 37 °C).
The growth of `COC(=O)[C@H](Cc1ccc(O)cc1)NCc1cc2ccccc2nc1SC` is reported as 84.6% (Pseudomonas aeruginosa; 128 µg/mL, without pentamidine; baseline: control).
With `CC1=C(Cn2cc([Si](C)(C)C)nn2)C(=O)c2ccccc2C1=O` the selectivity index was 11.6 (Schistosoma mansoni; NTS; baseline: L6 CC50 over IC50).
`C(=N\Nc1ccccc1)/c1ccc(-c2ccc(/C=N/Nc3ccccc3)cc2)cc1` gave a selectivity index of < 0.6 (Candida albicans; ATCC MYA-2310 susceptible; baseline: mammalian CC50 over MIC).
Under “phenotypic severity score”, `COc1ccc(Nc2cnnc3ccc(-c4ccc(N5CCN(C)CC5)cc4)cc23)cc1Cl` is recorded as 0 (Schistosoma mansoni; adult worms; 10 µM, 1 h; direction not given).
`COC(=O)[C@@H](NCc1cc2ccccc2nc1OCc1ccccc1)C(C)C` gave a growth of 101% (Pseudomonas aeruginosa; 8 µg/mL, with: pentamidine 50 µM; baseline: control).
